Measurements pooled from the literature.
± marks the error that the study gave.

The lactate dehydrogenase of `C[C@@H](O)[C@H](NC(=O)[C@H](CCCCN)NC(=O)COCCN)C(=O)N[C@@H](CCCNC(=N)N)C(=O)NC(C)(C)C(=O)N[C@@H](CCCNC(=N)N)C(=O)NC(C)(C)C(=O)N[C@H](C(=O)N[C@@H](CO)C(=O)N[C@@H](Cc1c[nH]cn1)C(=O)N[C@@H](Cc1ccc(O)cc1)C(=O)NCC(=O)O)[C@@H](C)O` is reported as 1000 to 2400 U/L (C57BL/6 mouse, blood; intravenous, 50 mg/kg, 10 h).
For `COc1ccc(F)cc1S(=O)(=O)Nc1cnc2c(c1)C(=O)NCCO2`, the Tmax was 1 h (male C57BL/6 mouse, plasma; oral, 3 mg/kg, single dose).
`CC(C)[C@H](NC(=O)CNC(=O)[C@H](CCC(N)=O)NC(=O)[C@H](C)N)C(=O)O`: “subjects with serious AE” 0% (healthy male volunteers; intravenous, 45 mg/kg/h, 2 h, together with: LPS 2 ng/kg).
Under “excretion in urine and feces”, `CC1N=C(c2ccccc2F)c2cc(Br)ccc2-n2cnc(C(=O)OC3OC(CO)C(O)C(O)C3O)c21` (stereo not shown) is recorded as 16.3 ± 7.3% (Swiss Webster mouse; intraperitoneal, 750 µg of parent drug, 0 to 48 h; reference: dose).
The fractional helicity of `CC[C@H](C)[C@H](NC(=O)[C@H](CC(N)=O)NC(=O)[C@H](CCCCN)NC(=O)[C@@H](NC(=O)[C@@H](N)CC(C)C)[C@@H](C)CC)C(=O)NCC(=O)N[C@H](C(=O)N[C@H](C(=O)N[C@H](C(=O)N[C@@H](CO)C(=O)N[C@@H](CCCCN)C(=O)N[C@H](C(=O)N[C@H](C(=O)N[C@@H](CCCCN)C(=O)N[C@H](C(=O)N[C@H](C(=O)N[C@@H](Cc1c[nH]c2ccccc12)C(=O)N[C@@H](CCCCN)C(=O)N[C@@H](Cc1ccccc1)C(=O)N[C@H](C(=O)N[C@@H](CC(=O)O)C(=O)N[C@@H](CC(=O)O)C(=O)O)[C@@H](C)O)C(C)C)[C@@H](C)O)[C@@H](C)CC)[C@@H](C)CC)C(C)C)[C@@H](C)CC)[C@@H](C)O` is reported as 0.55 (circular dichroism; POPC vesicles; pH 7.5).
`CCCCCCCC(=O)NCCCC[C@H](NC(=O)[C@H](Cc1ccccc1)NC(=O)[C@@H](CCCNC(=N)N)NC(=O)[C@@H](N)Cc1ccc(O)cc1)C(N)=O` gave a tissue concentration of 683 ± 90 ng/g (CD-1 mouse, male, lungs; intravenous, 3 mg/kg, 180 min).
`O.[C-]#[O+].[C-]#[O+].[C-]#[O+].[Re+].c1ccc(-c2ccccn2)nc1` gave a capacity factor of 0.42 (RP-HPLC C18 column, measured: free diimine ligand; MeCN:water 40:60, 0.1% TFA; isocratic elution).
Under “subjects with adverse events”, `CC(C)[C@H](NC(=O)CNC(=O)[C@H](CCC(N)=O)NC(=O)[C@H](C)N)C(=O)O` is recorded as 16.7% (healthy human; intravenous, 30 mg/kg single dose; reference: subjects).
`CNC(=O)c1cccc(-c2ccc(O[C@H]3O[C@H](CO)[C@@H](O)[C@H](O)[C@@H]3O)c(C)c2)c1` gave a clearance of 5.88 L/h/kg (rat; oral, 10 mg/kg, 10% cyclodextrin formulation).
For `CC[C@H](C)C(=O)N1CCC(NC(=O)Nc2ccc(OC(F)(F)F)c(F)c2)CC1`, “subjects with limb injury TEAE” read 0% (healthy volunteers; oral, 0.5 mg single dose).

A few entries again:
`CC(C)[C@H](NC(=O)CNC(=O)[C@H](CCC(N)=O)NC(=O)[C@H](C)N)C(=O)O`: “subjects with serious AE” 0% (healthy male volunteers; intravenous, 45 mg/kg/h, 2 h, together with: LPS 2 ng/kg).
The fractional helicity of `CC[C@H](C)[C@H](NC(=O)[C@H](CC(N)=O)NC(=O)[C@H](CCCCN)NC(=O)[C@@H](NC(=O)[C@@H](N)CC(C)C)[C@@H](C)CC)C(=O)NCC(=O)N[C@H](C(=O)N[C@H](C(=O)N[C@H](C(=O)N[C@@H](CO)C(=O)N[C@@H](CCCCN)C(=O)N[C@H](C(=O)N[C@H](C(=O)N[C@@H](CCCCN)C(=O)N[C@H](C(=O)N[C@H](C(=O)N[C@@H](Cc1c[nH]c2ccccc12)C(=O)N[C@@H](CCCCN)C(=O)N[C@@H](Cc1ccccc1)C(=O)N[C@H](C(=O)N[C@@H](CC(=O)O)C(=O)N[C@@H](CC(=O)O)C(=O)O)[C@@H](C)O)C(C)C)[C@@H](C)O)[C@@H](C)CC)[C@@H](C)CC)C(C)C)[C@@H](C)CC)[C@@H](C)O` is reported as 0.55 (circular dichroism; POPC vesicles; pH 7.5).
